Measurements gathered from unrelated publications.
A part holds a random share of what one study measured. Substitutions count along the parent as printed.

Block 1
Target: ABI1, truncated, D143A, DHFR fusion (Arabidopsis thaliana)
Method: DHFR PCA, deep sequencing
Sample: yeast
Setting: methotrexate growth selection, single substitutions
Together with: (+)-ABA 1.4 µM
Reference: wild-type fitted maximum
Direction: higher = stronger binding
Quantity: relative binding score
Starting sequence: PYL1, truncated, DHFR fusion (Arabidopsis thaliana); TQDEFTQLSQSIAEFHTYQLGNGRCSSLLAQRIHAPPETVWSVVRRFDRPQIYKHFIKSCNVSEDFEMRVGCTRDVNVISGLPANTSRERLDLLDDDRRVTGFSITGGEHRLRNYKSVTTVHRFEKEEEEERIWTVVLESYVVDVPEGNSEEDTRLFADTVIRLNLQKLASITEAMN; partner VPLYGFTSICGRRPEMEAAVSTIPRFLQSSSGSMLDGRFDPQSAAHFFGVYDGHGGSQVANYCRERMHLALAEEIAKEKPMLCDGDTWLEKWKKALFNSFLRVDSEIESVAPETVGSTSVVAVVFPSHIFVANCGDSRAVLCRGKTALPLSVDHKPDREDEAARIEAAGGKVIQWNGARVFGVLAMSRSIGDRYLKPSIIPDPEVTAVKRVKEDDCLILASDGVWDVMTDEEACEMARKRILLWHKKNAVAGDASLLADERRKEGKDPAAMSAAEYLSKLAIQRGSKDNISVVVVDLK
L164S: 51.8%
T154N: -40%
E147R: 23.1%
L156E: 12.3%
A84G: 51.2%
R46V: -20.7%
L91D: -2.36%
C72L: 8.21%
S80W: 33.2%
V145C: 8.33%
L169N: -31.5%
L112F: 27.5%
A30Q: 43.7%
V100K: 0.596%
S9P: 8.89%
N85L: 64.7%
G148R: 1.7%
K116D: -10.8%
E125I: 66.9%
T1H: 59.2%
I57D: -10.1%
I162H: 8.45%
S80K: -12.6%
M68G: 11%

Block 2
Target: Sal-like protein 4, full length isoform A (SALL4, Homo sapiens, UniProt Q9UJQ4, residues 1-1053)
Sequence of UniProt Q9UJQ4 (whole entry, looked up): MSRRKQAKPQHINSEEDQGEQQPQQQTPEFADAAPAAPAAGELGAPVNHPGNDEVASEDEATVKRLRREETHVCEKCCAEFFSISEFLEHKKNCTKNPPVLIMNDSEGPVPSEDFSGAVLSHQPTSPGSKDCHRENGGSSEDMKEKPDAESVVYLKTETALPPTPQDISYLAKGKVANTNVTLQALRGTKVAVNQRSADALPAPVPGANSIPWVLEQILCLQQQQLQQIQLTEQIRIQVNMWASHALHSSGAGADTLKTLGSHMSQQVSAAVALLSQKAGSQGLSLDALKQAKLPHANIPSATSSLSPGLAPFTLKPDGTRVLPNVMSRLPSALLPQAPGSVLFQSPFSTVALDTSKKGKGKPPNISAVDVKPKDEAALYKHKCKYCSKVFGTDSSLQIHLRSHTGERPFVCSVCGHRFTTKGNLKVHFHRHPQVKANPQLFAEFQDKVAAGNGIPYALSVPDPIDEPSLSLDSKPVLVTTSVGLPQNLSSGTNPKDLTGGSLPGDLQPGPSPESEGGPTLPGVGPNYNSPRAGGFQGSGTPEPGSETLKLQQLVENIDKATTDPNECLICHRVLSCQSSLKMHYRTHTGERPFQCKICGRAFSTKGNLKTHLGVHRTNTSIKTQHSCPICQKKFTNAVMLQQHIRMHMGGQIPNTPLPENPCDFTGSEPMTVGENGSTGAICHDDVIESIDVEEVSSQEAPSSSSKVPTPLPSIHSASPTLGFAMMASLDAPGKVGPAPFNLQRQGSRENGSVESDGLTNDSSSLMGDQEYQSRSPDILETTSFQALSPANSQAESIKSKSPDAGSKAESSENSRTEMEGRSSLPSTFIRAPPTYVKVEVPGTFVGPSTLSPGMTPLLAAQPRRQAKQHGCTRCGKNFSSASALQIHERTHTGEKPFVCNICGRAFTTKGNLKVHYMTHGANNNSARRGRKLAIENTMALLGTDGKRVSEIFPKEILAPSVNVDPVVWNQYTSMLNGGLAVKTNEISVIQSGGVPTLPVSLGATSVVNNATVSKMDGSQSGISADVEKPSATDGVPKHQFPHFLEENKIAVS
Method: universal PBM
Form: double-stranded DNA, one strand shown
Sample: in vitro
Concentration: 600 nM
Setting: 8-mer, flanks averaged, mean of replicates
Direction: higher = stronger binding
Quantity: E-score
AAAGTTCT: 0.148
CTATCTGA: 0.00737
AAATCTAA: 0.226
AACTTCTC: 0.136
ATATTAAA: 0.439
AGGACGTG: -0.0881
AGCGTGGG: -0.299
GGTTAGCA: -0.0857
ATGAGTGG: -0.0694
GCGGGCAA: -0.28
AAGTAACG: 0.128
AGGGCGAG: -0.311
ACAGGGAT: -0.116
GACCTCCC: -0.355
CCCCTCGA: -0.252
CGCATCCC: -0.284
CCATTGCC: -0.116
AGCTTGTC: -0.136
ATGTAATC: 0.229
CCCAGGTC: -0.277
ATACGCAA: 0.133
AGACCTAG: -0.105
CTCCGAAC: -0.234
CAAGCGCA: 0.0291
GTTTCGGA: 0.034

Block 3
Target: Histone acetyltransferase KAT6A, winged helix 2, GST fusion (KAT6A, Homo sapiens, UniProt Q92794, residues 85-181)
Method: protein binding microarray
Form: double-stranded DNA, one strand shown
Sample: in vitro
Concentration: not given
Setting: 8-mer, flanks averaged, mean of 2 arrays, mostly near background
Reference: not given
Direction: higher = stronger binding
Quantity: E-score
Target sequence (chain): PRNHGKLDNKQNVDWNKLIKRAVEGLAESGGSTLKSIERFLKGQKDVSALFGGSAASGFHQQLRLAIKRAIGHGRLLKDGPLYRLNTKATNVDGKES
CCAGAATC: -0.00079
CGGATCCG: 0.034
ATCTTGGC: -0.0934
AACGAGGA: 0.0145
AGGGCTAA: 0.065
GGCTATGA: 0.0169
CCCGTCTA: 0.0372
TCTTAAGA: 0.0454
CCGTCCGC: -0.0444
GAGAATAC: 0.0202
ATCCCTTC: -0.0746
ATCTGTCA: -0.0529
ACGCATAA: -0.0627
TAATCCTA: -0.0909
GAGTGTGA: 0.00404
GAGCACGA: 0.0595
TCCATCAA: 0.0774
AGTGATTA: -0.0987
GCCAAACA: 0.00809
AATTGCCG: 0.0161
AGACGGGA: 0.00279
ACCTTTGG: -0.138
GCCGATAA: 0.0468
GCGAGCGC: 0.175
ACTTCTCT: -0.0965

Block 4
Target: Interferon regulatory factor 7, full length, phosphomimetic (IRF7, Homo sapiens, UniProt Q92985, residues 1-503, S471D/S472D/S475D/S476D/S477D/S483D/S484D/S487D)
Sequence of UniProt Q92985 (whole entry, unmodified, looked up): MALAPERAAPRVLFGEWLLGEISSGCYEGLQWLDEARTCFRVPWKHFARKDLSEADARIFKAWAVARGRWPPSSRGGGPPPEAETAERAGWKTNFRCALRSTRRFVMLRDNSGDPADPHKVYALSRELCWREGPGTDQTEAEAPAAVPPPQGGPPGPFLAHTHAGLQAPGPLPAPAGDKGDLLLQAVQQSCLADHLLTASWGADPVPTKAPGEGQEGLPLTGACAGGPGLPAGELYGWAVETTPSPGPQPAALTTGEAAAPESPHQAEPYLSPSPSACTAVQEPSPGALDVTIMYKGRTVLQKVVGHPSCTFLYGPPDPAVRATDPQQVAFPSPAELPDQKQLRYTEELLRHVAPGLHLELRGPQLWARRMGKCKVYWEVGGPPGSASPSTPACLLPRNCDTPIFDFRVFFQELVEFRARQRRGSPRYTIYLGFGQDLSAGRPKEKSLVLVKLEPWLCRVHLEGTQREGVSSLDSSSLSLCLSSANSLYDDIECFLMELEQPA
Method: protein-binding microarray
Form: double-stranded DNA, one strand shown
Sample: in vitro
Concentration: 2200 nM top
Setting: 60-bp whole probe
Together with: salmon DNA 0.4 mg/ml
Reference: random background probes
Direction: higher = stronger binding
Quantity: fitted relative affinity
Constant ends, left off below: GCCTAGCAC … GTCTTGATTCGCTTGACGCTGCTG
TCAGGTTTCCTTCTCCTTTAGTGCTAG: 3.05 z-score
GACGGTTTCGGTTTCGGCACGTGCTAG: 13.7 z-score
CTGCAGGTAGCAGAGACTTGGTGCTAG: -0.67 z-score
AAGGATTTCAGTTTCTCTTTGTGCTAG: 5.96 z-score
TTAGGACTGCTGTTCCTTTAGTGCTAG: 0.0868 z-score
TTAAATCTCAGTATCGATTAGTGCTAG: 0.181 z-score
TCACCTTGCATGTTTTTGACTGTGCTA: 1.58 z-score
ATATATTCATATATATATGAGTGCTAG: 0.617 z-score
GCCGAACTGAGTATCGAGACGTGCTAG: -0.0165 z-score
GACCGTTCCGGTTTCGGGACGTGCTAG: 4.75 z-score
TCATTAATCACATATACAACTGTGCTA: 0.287 z-score
TTAGGACTGCTACAGCTTTAGTGCTAG: -0.353 z-score
GACGGTCCCCTACTGCTGACGTGCTAG: 0.155 z-score
GACGGACTGGACACCGGGGACGTGCTA: -1.04 z-score
TTGGAACTGAGTCTCGATTAGTGCTAG: 0.143 z-score
GACCGACTGGACACTGGGGACGTGCTA: -0.702 z-score
TTAGATATCCTTCTCCTTTAGTGCTAG: 1.26 z-score

Block 5
Target: RNA binding protein fox-1 homolog 2, RRM domain, GST-SBP tag (RBFOX2, Homo sapiens, UniProt O43251-10, residues 100-194)
Method: RNA Bind-n-Seq
Form: RNA
Sample: in vitro
Concentration: 365 nM
Setting: natural RNA segment, single round, ends assumed
Reference: no-protein control
Direction: higher = stronger binding
Quantity: RBNS enrichment (R)
Constant ends, left off below: GGGAGUUCUACAGUCCGACGAUC … UGGAAUUCUCGGGUGCCAA
Target sequence (chain): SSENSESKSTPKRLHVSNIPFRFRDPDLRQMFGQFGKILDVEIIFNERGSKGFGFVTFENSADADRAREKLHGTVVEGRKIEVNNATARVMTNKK
AUGUUUUGCCACUUCUGCAGACUGAGAGACGUGUCAUUGGACAUGUGUAACCAUUUGAUAUCUGAGCAAUAGUGUCUCAGUUUAAUAAAAGCUUCCUAUAGUACAUUGGU: 0.701
GUGUAUGUUUUUCAGUUCAAAGUCAUGAUGUUUUUAAAAUCUUAUUAAAGUUUCAAAAAUCUGAAGAUUGUUUAUCUAGAUGUAAAUUUUUAUUAAAAAGUUGCACUUAU: 1.74
UUUUUAUUCAGUGAGAACCAAGCUAGCCUUGAGUAAUUUUUAUCUUGUCUUCCUAAAACACUAUUAAGCUUAUUGUACUUUUAAGAAAAAUUGCCUUACGUACAUUCCUU: 0.775
CUGGAAAUUUCUGCUAACACCAAGAUAUUUAAGAGUGUACAUAGUAGGUGCUCAACAAAUUUAUUGAAUGAAUGAGUGAAUGGAAAAACUGGGAGAGUCAAAAGUGAGCA: 3.24
UAUUGAGGCCAGAGGAGCAAGUGUGCUUCUUCCUUGUCCUUGUCCCAUCAUUGAGACCUUCAUCUACAGUUUCCAAACAGUCAUUGGAAAACGCACGACAGUUACCCAGA: 1.73
CUGGAACUGAAACUACAACCAAUGUGCUACGGUGGGCGAUUCUUUUCAUGGCCCUUUAUCCUAAUAUUCAAGUACUGGAGAGACCCAGAAGUGUUCCAUCCUGAGCGAUU: 0.378
AGCUUGCUCCCAGCCCCCUCCCCAAUUUGGUUCCGUUGACAUAGGAAUUUUACGAUUCCCAAACCAUGCAGGGGCUGAGCCUUCCUUAUGAUGACUUUGUUCUCCCUCCC: 0.439
CUGGGAUUACAGGCUUGAGCCACCACGCCCAGCCUAAGAUUUUAUGAUUAAAAAAAAUUCAAGCUCAAUACCCACAUAAAUUAUAACGUUUCUCAGGAAGUAGUCCCUUA: 0.403
AACGUCUCAGGCUUAGAAAUAUAUGAAAUUGCUUUUUGAGAUUUUUGCGUGUGUGUUUGAUAUUUUUUACGAUAAUUAGCUGCAUGUGAAUUUUUCAUGACCUUCUUUAC: 0.63
CUCAGGACCCUCUUCCCUCAGGGGCUGCACCCUCCUCUCACUCCCUUCCAUGCCGGAACCCAGGCCAGGGACCCACCGGCCUGUGGUUUGUGGGAAAGCAGGGUGGACGC: 0.334
GAACACACCGAGGAAACAUGUAGCGAGAAUCACAUACAAGGCUUGGUGUUUCAUAAGCAUGCCUGCUGACAGCUGUAUGUGGUACUGCAGUGUUUACCAUAAACAGGUAC: 1.78
AGCUCAGGUGAAAGACUGAGAUGAAUGUCUUUCCUCUCCCUGCCUCCCACCAGACUUCCUCCUGGAAAACGCUUUGGUAGAUUUGGCCAGGAGCUUUCUUUUAUGUAAAU: 0.386

Block 6
Target: Fragile X messenger ribonucleoprotein 1, C-terminal low-complexity region (Fmr1, Mus musculus, UniProt P35922)
Method: RNA Bind-n-Seq
Form: RNA
Sample: in vitro
Concentration: 200 nM
Setting: whole 134-nt RNA, ends assumed
Together with: 150 mM LiCl
Reference: input library
Direction: higher = stronger binding
Quantity: log2 enrichment
All molecules: 7-deaza-guanosine replaces G
Constant ends, left off below: GGGAGUUCUACAGUCCGACGAUC … UGGAAUUCUCGGGUGUCAAGG
CACAGACAACACGCACCCACACAGACACAGGGGGAAGGGGUUGGGAUGGGGACAGGGUGCACAGCAGGGCGGGGUAGGACCCCAGCCCCU: 0.388
CCUGUGCUACACAUCGUAUGUACCGAAUCGGUUUUUUUGGGGUUUUUUUGGUUUUUUUGGAAAGUAUUAUGUUACGCCGUUCGGAUCUGC: 0.146
CAAGUCCUGUGCUACACAUCGUAUGUACCGAAUCGGAAAAAAAGGUGGUUUUUGGAAAGUAUUAUGUUACGCCGUUCGGAUCUGCACUUC: -1.76
CACAGACAACACGCACCCACACAGACACAGAGGGAAGGGGUUGGGAUGGGGACAGGGUGCACAGCAGGGCGGGCUAGGACCCCAGCCCCU: 0.629
UGUGCUACACAUCGUAUGUACCGAAUCGGGGUUUUUUUGGGGUUUUUUUGGGUUUUUUUGGGAAAGUAUUAUGUUACGCCGUUCGGAUCU: 1.35
AAGUCCUGUGCUACACAUCGUAUGUACCGAAUCGGUUUUUUUGGUUUGGUUUUUGGAAAGUAUUAUGUUACGCCGUUCGGAUCUGCACUU: -2.91
AAGUCCUGUGCUACACAUCGUAUGUACCGAAUCGGGGAAAAAGGGGUGGGGAGGGGAAAGUAUUAUGUUACGCCGUUCGGAUCUGCACUU: -0.199
UCAAGUCCUGUGCUACACAUCGUAUGUACCGAAUCGGAAAAAGGUUUGGAAAGGAAAGUAUUAUGUUACGCCGUUCGGAUCUGCACUUCC: -1.31
GCAGGAAGUAAAAACAAAUGGAAAUGCUUCGGAUAGUGUCAGGGGUGGGGGUUGCUAAGGAAAGGGUGGGAUGGGAGUGGGUAAAGAGUU: 1.46
AGUCCUGUGCUACACAUCGUAUGUACCGAAUCGGAAAAAGGAAAAAGGGAAAAAGGGAAAGUAUUAUGUUACGCCGUUCGGAUCUGCACU: -1.63
CCUCAAGUCCUGUGCUACACAUCGUAUGUACCGAAUCGGGUGGGUGGGUGGGGAAAGUAUUAUGUUACGCCGUUCGGAUCUGCACUUCCA: -0.491
